Measurements from different studies.
Each line is one published result; not all experiments were run side by side. ± gives the spread as reported.
TDP1: Tyrosyl-DNA phosphodiesterase 1 (TDP1, Homo sapiens, UniProt Q9NUW8)
Sequence of UniProt Q9NUW8 (whole entry, looked up): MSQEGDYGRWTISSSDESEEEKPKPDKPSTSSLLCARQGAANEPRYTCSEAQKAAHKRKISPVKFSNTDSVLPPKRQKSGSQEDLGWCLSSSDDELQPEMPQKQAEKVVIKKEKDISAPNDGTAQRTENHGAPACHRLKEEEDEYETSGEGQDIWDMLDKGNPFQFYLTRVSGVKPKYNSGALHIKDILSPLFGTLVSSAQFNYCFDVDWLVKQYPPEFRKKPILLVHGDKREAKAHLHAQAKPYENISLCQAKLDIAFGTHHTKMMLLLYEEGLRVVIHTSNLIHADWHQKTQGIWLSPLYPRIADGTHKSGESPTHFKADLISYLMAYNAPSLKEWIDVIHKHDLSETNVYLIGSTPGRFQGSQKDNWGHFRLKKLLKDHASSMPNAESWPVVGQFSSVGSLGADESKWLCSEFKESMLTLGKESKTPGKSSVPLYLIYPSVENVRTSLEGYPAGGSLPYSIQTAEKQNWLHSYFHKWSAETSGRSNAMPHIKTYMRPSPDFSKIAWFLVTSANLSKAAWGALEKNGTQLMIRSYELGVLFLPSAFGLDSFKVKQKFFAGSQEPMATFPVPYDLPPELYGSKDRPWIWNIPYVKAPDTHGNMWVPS
Sequence of UniProt P0A7A9 (whole entry, looked up): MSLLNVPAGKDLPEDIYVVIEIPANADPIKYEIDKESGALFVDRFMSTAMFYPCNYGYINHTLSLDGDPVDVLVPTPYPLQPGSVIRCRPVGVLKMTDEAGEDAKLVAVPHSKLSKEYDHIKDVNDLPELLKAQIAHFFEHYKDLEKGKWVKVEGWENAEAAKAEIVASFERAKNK

O=C(NCC1OC2CCC=CCCC2O1)c1ccc([18F])nc1 (stereo not shown) — tissue uptake (healthy female BALB/c nude mice, muscle; intravenous, 7.4 MBq per mouse, 60 min): 1.1 ± 0.36 %ID/g
O=C(O)c1ccc(Nc2c(-c3ccc(CON=Cc4cccnc4Oc4ccc(Cl)cc4)cc3)nc3cc(-c4ccccc4)ccn23)cc1 — inhibition (TDP1; enzyme activity, inhibitor; 100 µM, unpurified compound): 17.7%
COc1ccc(Nc2nc(Nc3ccc(OCCOCCOCC[18F])cc3)ncc2Br)cc1 — tissue uptake (ICR mice, S180 tumour-bearing, bone; intravenous, 370 kBq, 60 min): 3.9 ± 0.17 %ID/g
COc1cccc(OC)c1-c1cc(C(=O)NC2(C(=O)O)C3CC4CC(C3)CC2C4)nn1-c1ccc(C(=O)N(C)CCOCCN(C)C(=O)[C@H](CCCCNC(=O)[C@H](CC(C)C)NC(=O)C2OC2C(=O)O)NC(=O)CN2CCN(CC(=O)[O-])CCN(CC(=O)[O-])CCN(CC(=O)[O-])CC2)cc1C(C)C.[177Lu+3] (mixture of isomers) — tissue uptake (mouse, HT-29 xenograft, heart; 168 h post injection): 0.22 %ID/g
[123I]c1ccc2nc(-c3ccc(-n4ccnn4)nc3)cn2c1 — tissue uptake (male Wistar rat, small intestine; intravenous, 4 MBq, 24 h): 0.022 ± 0.008 %ID/g
N#C[C@@H]1CC(F)(F)CN1C(=O)CNC(=O)c1ccnc2c(NC(=O)[C@H](CCCCNC(=O)CCOCCOCCOCCOCCOCCOCCNC(=O)CN3CCN(CC(=O)[O-])CCN(CC(=O)[O-])CCN(CC(=O)[O-])CC3)NC(=O)CCCc3ccc(I)cc3)cccc12.[177Lu+3] — tissue uptake (mouse, U-87 MG tumour xenograft, spleen; 24 h): 3.1 ± 1.04 %ID/g
CNc1sc(C(=O)c2ccc(OC)cc2)c(N)c1C#N — IC50 (ppa (Escherichia coli, UniProt P0A7A9); inhibitor, counter-screen, coupling enzyme alone): 64.1 µM
COc1cccc(OC)c1-c1cc(C(=O)NC2(C(=O)O)C3CC4CC(C3)CC2C4)nn1-c1ccc(C(=O)N(C)CCCN(C)C(=O)[C@H](CCCCNC(=O)[C@H](CC(C)C)NC(=O)C2OC2C(=O)O)NC(=O)CN2CCN(CC(=O)[O-])CCN(CC(=O)[O-])CCN(CC(=O)[O-])CC2)cc1C(C)C.[177Lu+3] (mixture of isomers) — tissue uptake (mouse, HT-29 xenograft, spleen; 72 h post injection): 0.25 %ID/g
O=C(O)CCCOc1ccc([18F])cc1-c1cc(-c2ccccc2C(F)(F)F)n(-c2ccccc2)n1 — tissue uptake (mouse, muscle; intravenous, dose not given, 5 min): 2.25 ± 0.2 %ID/g
COc1ccc(C(=O)CC2(O)C(=O)Nc3cc(Cl)cc(Cl)c32)cc1OC (stereo not shown) — IC50 (Uncharacterized protein (Trypanosoma brucei brucei, UniProt Q386Q8); inhibitor, coupled colorimetric; Trypanosoma brucei): > 100 µM
COc1cccc(OC)c1-c1cc(C(=O)NC2(C(=O)O)C3CC4CC(C3)CC2C4)nn1-c1ccc(C(=O)N(C)CCOCCOCCN(C)C(=O)[C@H](CCCCNC(=O)[C@H](CC(C)C)NC(=O)C2OC2C(=O)O)NC(=O)CN2CCN(CC(=O)[O-])CCN(CC(=O)[O-])CCN(CC(=O)[O-])CC2)cc1C(C)C.[177Lu+3] (mixture of isomers) — tissue uptake (mouse, HT-29 xenograft, kidney; 72 h post injection): 4.2 %ID/g
N#C[C@@H]1CC(F)(F)CN1C(=O)CNC(=O)c1ccnc2c(NC(=O)[C@@H](N)CCCCNC(=O)CCOCCOCCOCCOCCOCCOCCNC(=O)CN3CCN(CC(=O)[O-])CCN(CC(=O)[O-])CCN(CC(=O)[O-])CC3)cccc12.[177Lu+3] — tissue uptake (mouse, U-87 MG tumour xenograft, salivary gland; 4 h): 0.38 ± 0.14 %ID/g
O=C(O)c1ccc(Nc2c(-c3ccc(CON=Cc4ccc(-n5cccn5)cc4)cc3)nc3cc(-c4ccccc4)ccn23)cc1 — inhibition (TDP1; enzyme activity, inhibitor; 100 µM, unpurified compound): 89.7%

For quick reference, copied from above:
O=C(O)c1ccc(Nc2c(-c3ccc(CON=Cc4ccc(-n5cccn5)cc4)cc3)nc3cc(-c4ccccc4)ccn23)cc1 — inhibition (TDP1; enzyme activity, inhibitor; 100 µM, unpurified compound): 89.7%
